Published values from different studies.
Numbers after ± are the reported error.

The chains behind the UniProt entries cited, without tags or fusion partners. Residues count along the entry.
UniProt Q2UCU3, 19-1005 limits assumed: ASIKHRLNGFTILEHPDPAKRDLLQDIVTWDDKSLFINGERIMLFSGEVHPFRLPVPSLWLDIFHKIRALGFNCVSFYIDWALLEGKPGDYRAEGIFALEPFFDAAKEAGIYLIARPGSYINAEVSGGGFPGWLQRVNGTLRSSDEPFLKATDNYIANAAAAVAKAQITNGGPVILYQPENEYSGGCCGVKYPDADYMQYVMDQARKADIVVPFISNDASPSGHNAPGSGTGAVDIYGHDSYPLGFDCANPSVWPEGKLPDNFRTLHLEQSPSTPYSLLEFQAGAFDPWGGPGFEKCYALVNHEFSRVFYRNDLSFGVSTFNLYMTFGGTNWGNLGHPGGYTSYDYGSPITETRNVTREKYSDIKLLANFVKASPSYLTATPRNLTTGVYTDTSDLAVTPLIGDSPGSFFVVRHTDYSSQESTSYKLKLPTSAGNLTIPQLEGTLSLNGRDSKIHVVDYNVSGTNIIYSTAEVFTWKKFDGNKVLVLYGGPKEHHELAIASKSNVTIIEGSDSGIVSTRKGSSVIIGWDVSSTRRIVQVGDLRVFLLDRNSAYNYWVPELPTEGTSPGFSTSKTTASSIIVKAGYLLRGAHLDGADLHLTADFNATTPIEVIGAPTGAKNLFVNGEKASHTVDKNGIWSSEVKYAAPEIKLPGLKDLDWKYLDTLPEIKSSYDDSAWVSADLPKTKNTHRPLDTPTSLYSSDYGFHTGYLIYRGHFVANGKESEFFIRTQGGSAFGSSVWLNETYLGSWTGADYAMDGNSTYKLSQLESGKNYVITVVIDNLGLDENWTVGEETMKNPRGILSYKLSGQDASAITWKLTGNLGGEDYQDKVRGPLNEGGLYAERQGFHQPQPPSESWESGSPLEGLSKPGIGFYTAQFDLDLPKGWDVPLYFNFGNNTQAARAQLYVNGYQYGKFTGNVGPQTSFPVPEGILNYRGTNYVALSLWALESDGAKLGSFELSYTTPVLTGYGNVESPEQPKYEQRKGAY
UniProt Q8NER1, whole entry: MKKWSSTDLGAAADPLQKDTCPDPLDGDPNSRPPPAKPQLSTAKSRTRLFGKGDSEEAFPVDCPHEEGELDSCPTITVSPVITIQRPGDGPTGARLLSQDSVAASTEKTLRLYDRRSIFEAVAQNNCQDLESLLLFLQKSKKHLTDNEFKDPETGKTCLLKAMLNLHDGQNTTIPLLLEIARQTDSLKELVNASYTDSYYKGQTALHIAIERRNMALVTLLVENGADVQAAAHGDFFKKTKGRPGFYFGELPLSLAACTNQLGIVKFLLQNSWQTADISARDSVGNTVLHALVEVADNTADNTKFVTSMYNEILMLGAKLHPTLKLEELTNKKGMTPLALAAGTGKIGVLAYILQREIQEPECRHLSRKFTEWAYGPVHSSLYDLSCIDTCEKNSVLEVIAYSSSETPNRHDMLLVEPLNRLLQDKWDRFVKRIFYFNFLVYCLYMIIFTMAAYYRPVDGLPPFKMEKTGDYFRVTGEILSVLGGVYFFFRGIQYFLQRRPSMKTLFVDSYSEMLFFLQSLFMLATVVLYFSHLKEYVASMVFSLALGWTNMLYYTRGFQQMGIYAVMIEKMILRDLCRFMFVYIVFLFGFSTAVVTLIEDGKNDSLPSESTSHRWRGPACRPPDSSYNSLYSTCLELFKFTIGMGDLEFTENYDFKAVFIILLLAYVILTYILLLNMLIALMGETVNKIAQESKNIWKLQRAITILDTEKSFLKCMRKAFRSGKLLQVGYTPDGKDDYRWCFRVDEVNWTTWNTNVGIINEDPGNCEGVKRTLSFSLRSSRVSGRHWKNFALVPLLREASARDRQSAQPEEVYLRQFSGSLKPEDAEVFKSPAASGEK
UniProt P54292, whole entry: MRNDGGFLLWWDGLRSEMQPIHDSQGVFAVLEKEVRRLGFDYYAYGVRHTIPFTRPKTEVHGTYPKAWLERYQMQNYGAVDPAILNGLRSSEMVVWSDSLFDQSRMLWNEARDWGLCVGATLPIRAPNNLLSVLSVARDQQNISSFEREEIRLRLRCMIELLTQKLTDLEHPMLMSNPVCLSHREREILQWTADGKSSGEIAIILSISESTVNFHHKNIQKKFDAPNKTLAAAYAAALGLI
UniProt P09884, whole entry: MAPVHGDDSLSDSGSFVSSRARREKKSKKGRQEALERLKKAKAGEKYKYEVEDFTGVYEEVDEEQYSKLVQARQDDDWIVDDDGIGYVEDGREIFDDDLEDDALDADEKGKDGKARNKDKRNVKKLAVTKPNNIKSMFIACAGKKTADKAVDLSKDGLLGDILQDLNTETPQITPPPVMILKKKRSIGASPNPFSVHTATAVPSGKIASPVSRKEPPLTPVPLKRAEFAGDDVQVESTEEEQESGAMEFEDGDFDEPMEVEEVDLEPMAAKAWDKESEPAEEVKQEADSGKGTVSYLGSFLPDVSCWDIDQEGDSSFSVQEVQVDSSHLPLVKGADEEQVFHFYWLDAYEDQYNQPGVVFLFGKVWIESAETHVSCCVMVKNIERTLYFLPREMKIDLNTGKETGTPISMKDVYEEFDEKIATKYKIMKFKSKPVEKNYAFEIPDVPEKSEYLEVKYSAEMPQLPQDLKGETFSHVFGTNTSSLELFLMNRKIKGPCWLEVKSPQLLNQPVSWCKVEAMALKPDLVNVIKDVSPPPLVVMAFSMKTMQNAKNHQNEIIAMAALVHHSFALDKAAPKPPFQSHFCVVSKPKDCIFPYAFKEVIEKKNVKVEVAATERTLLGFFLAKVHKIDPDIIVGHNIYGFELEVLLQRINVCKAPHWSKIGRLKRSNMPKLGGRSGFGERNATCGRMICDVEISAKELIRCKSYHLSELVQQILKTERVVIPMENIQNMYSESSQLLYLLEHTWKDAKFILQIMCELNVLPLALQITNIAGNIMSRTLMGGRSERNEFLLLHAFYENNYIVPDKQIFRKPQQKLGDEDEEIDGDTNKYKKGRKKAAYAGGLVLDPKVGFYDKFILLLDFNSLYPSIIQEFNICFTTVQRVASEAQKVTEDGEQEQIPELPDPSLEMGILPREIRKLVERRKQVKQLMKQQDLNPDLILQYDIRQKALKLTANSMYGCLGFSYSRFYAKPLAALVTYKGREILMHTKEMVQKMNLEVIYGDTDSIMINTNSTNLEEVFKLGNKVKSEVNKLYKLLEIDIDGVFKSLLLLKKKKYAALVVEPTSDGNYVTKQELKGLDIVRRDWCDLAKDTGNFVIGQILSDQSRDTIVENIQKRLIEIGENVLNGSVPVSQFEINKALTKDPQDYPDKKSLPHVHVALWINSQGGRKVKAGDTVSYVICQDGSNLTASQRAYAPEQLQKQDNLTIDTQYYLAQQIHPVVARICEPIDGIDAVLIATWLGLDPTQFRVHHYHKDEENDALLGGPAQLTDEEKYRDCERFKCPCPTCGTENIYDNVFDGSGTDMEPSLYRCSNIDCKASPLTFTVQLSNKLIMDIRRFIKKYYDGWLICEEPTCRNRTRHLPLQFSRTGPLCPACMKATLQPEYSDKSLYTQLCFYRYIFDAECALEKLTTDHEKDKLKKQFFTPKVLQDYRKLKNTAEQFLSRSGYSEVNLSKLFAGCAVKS
UniProt P0DKX7, 1-373 limits assumed: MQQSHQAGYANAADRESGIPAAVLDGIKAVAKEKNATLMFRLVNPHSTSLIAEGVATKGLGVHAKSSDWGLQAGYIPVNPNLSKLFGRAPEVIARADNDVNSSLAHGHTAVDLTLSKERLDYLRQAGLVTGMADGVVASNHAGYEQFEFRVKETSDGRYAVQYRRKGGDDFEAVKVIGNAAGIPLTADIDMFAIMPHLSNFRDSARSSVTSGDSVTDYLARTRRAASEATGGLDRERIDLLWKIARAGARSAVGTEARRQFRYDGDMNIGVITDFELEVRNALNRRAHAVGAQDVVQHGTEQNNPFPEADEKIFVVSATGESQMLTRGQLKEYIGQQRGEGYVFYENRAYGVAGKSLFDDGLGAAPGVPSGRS
UniProt P10959, 19-549 limits assumed: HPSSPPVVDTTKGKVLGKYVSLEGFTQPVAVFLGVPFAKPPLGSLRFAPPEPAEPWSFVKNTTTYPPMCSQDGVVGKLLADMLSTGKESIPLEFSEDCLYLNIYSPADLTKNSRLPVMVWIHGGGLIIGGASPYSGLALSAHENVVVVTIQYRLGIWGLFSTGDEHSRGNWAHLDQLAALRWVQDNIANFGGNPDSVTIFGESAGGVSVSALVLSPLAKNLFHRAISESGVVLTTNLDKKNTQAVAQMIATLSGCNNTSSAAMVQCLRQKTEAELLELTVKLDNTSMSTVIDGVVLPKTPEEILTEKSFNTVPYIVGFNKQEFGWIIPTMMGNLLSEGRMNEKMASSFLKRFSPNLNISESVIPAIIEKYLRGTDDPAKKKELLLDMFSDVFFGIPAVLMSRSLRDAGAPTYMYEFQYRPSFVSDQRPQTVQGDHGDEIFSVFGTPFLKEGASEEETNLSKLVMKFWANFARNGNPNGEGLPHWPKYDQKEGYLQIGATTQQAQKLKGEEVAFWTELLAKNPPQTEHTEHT
UniProt P60752, whole entry D512G: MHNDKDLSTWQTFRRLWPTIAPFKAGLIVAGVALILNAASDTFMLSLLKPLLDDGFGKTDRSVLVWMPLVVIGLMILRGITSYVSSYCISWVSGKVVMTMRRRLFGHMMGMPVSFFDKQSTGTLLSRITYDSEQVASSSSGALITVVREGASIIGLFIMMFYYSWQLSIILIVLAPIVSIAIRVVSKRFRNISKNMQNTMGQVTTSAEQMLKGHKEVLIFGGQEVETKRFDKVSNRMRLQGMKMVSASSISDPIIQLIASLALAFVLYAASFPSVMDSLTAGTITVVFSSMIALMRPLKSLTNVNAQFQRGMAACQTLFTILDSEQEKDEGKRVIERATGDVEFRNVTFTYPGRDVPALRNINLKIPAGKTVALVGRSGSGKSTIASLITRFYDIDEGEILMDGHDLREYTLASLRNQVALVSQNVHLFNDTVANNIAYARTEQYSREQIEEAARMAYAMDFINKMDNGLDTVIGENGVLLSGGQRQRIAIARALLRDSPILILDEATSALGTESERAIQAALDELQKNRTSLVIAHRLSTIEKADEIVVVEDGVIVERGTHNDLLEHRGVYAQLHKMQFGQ
UniProt P12389, 28-511 limits assumed: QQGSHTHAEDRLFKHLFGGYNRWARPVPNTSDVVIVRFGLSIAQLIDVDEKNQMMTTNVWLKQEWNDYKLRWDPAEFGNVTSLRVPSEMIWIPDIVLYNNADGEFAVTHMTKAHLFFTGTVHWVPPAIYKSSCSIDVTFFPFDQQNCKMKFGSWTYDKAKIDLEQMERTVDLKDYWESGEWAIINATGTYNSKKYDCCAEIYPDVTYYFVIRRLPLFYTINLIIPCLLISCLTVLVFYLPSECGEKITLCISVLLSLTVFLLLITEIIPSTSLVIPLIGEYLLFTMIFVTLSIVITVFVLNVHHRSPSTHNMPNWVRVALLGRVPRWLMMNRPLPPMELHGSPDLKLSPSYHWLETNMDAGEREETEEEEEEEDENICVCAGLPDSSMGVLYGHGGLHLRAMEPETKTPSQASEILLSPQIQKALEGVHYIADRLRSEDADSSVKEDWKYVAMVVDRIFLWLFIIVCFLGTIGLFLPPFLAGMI
UniProt P12392, 21-495 limits assumed: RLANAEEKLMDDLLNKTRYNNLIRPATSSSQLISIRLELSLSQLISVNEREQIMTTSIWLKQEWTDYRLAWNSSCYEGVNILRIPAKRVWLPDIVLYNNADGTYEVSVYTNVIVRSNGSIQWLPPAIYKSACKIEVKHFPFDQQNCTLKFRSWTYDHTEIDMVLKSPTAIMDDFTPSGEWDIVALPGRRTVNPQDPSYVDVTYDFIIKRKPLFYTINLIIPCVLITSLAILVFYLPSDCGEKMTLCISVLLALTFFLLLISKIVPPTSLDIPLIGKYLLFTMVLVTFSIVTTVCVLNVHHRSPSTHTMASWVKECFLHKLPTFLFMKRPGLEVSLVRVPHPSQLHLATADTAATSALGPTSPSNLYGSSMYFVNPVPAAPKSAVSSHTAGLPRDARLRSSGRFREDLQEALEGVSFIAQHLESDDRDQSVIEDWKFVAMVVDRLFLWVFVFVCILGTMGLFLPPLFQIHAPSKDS
UniProt H0V073, 1-176: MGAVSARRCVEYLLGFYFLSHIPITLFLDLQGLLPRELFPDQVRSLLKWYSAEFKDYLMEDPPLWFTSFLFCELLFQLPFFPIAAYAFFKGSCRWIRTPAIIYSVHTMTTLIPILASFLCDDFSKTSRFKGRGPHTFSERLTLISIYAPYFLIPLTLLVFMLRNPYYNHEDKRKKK

COc1ccc(S(=O)(=O)N(CC(C)C)C[C@@H](O)[C@H](Cc2ccccc2)NC(=O)O[C@@H]2C[C@@H]3CO[C@@H]4O[C@H]2C[C@H]34)cc1 — Ki (Gag-Pol polyprotein, protease (gag-pol, Human immunodeficiency virus type 1 group M subtype B, UniProt P04585); enzyme activity, inhibitor): 0.008 nM
CCOC(=O)c1c(-c2ccc(Cl)cc2Cl)n(-c2nc(-c3ccc(Cl)cc3)c3c(NC(=O)c4ccccc4)nnc-3[nH]2)[nH]c1=O — CC50 (A498; SRB): 5.25 µM
OC[C@H]1NC(=NCCCc2ccccc2)[C@H](O)[C@@H](O)[C@H]1O — Ki (lacA (Aspergillus oryzae, UniProt Q2UCU3); inhibitor, nitrophenyl galactoside hydrolysis; pH 5.00, with: substrate 2d): 11.8 nM
CCCCC(CCCC)Oc1nc(C(F)(F)F)ccc1CNC(=O)C(C)c1ccc(NS(C)(=O)=O)c(F)c1 (stereo not drawn) — Ki (TRPV1 (Homo sapiens, UniProt Q8NER1); ion current, antagonist, FLIPR; CHO cells expressing TRPV1; with: capsaicin): 0.5 nM
O=C(N[C@H]1CCOC1=O)C1CCCC1 — EC50 (rhlR (Pseudomonas aeruginosa, UniProt P54292); reporter gene, agonist, rhlI-gfp reporter; PAO-JP2): 1220 nM
Cc1cn([C@@H]2CC[C@H](OC(C(=O)O)P(=O)(O)O)C2)c(=O)[nH]c1=O (relative stereo) — IC50 (POLA1 (Homo sapiens, UniProt P09884); enzyme activity, inhibitor; with: activated calf thymus DNA): 229 ± 27 µM
CNc1ccccc1C(=O)O[C@H]1[C@@H](O)[C@H](n2cnc3c(=O)[nH]cnc32)O[C@@H]1COP(=O)(O)OP(=O)(O)OP(=O)(O)O — Ki (cya, adenylate cyclase domain (Bordetella pertussis, UniProt P0DKX7); inhibitor): 1000 ± 40 nM
COP(=O)(OC)Oc1ccc([N+](=O)[O-])cc1Cl — IC50 (Carboxylesterase 1C (Ces1c, Rattus norvegicus, UniProt P10959); enzyme activity, inhibitor; rat, postnatal day 12, rat serum; with: p-nitrophenyl valerate): 0.061 µM
N#Cc1c(-c2ccc(Cl)cc2Cl)n(-c2nc(-c3ccc(Cl)cc3)c3c(NC(=O)c4ccccc4)nnc-3[nH]2)[nH]c1=O — CC50 (SNB-19; SRB): > 100 µM
Nc1ncnc2c1ncn2[C@@H]1O[C@H](COP(=O)(O)OP(=O)(O)OP(=O)(O)O)[C@@H](Oc2c([N+](=O)[O-])cc([N+](=O)[O-])cc2[N+](=O)[O-])[C@H]1O — Kd (msbA (Escherichia coli, UniProt P60752, D512G); fluorescence titration; pH 7, no Mg added, 0.01% DM, 10% glycerol): 810 ± 150 nM
CC[C@H](C)[C@@H]1NC(=O)[C@H](CCC(=O)O)NC(=O)[C@@H]2CCCN2C(=O)[C@H](Cc2c[nH]cn2)NC(=O)[C@H](CCCNC(=N)N)NC(=O)[C@H](C(C)C)NC(=O)[C@H](CC(N)=O)NC(=O)[C@@H]2CSSC[C@H](NC(=O)CN)C(=O)N[C@@H](CSSC[C@@H](C(N)=O)NC1=O)C(=O)N[C@@H](CO)C(=O)N[C@@H](Cc1c[nH]cn1)C(=O)N1CCC[C@H]1C(=O)N[C@@H](C(C)C)C(=O)N2 — IC50 (Neuronal acetylcholine receptor; alpha2/beta4 (Rattus norvegicus, UniProt P12389+P12392); ion current, antagonist, two-electrode voltage clamp; Xenopus oocytes; rat, with: ACh 300 µM): > 10 µM
CCOc1ccc(C2C(C#N)=C(N)Oc3c2c(C)nn3-c2ccc(Cl)cc2)cc1 (stereo not drawn) — viability (Vero E6; 0.4 µM): 84.2%
NCCCCCC(=O)Nc1nnc(S(N)(=O)=O)s1 — Ki (Enterococcus faecium gamma-carbonic anhydrase; CO2 hydration, inhibitor, stopped-flow kinetics): 60.4 nM
COc1cc2c(cc1OC)N(CCCCNC(=O)c1cc(Br)cc(OC)c1OC)CCCC2 — Ki (Sigma-2 receptor (Cavia porcellus, UniProt H0V073); binding; brain membranes; (+)-pentazocine masking, with: [3H]DTG 500 nM): 8960 ± 335 nM
Cc1nn(-c2ccc(Cl)cc2)c2c1C(c1ccc(O)cc1)C(C#N)=C(N)O2 (stereo not drawn) — viability (Vero E6; 6.3 µM): 70.8%

Repeated from above:
O=C(N[C@H]1CCOC1=O)C1CCCC1 — EC50 (rhlR (Pseudomonas aeruginosa, UniProt P54292); reporter gene, agonist, rhlI-gfp reporter; PAO-JP2): 1220 nM
NCCCCCC(=O)Nc1nnc(S(N)(=O)=O)s1 — Ki (Enterococcus faecium gamma-carbonic anhydrase; CO2 hydration, inhibitor, stopped-flow kinetics): 60.4 nM
